# Published values collected from several papers.
# A part holds a random share of what one study measured. Substitutions count along the parent as printed.

# Study 1
# Target: Histone acetyltransferase KAT6A, winged helix 2, GST fusion (KAT6A, Homo sapiens, UniProt Q92794, residues 85-181)
# Technique: protein binding microarray
# Molecule type: double-stranded DNA, one strand shown
# Matrix: in vitro
# Tested at: not given
# Notes: 8-mer, flanks averaged, mean of 2 arrays, mostly near background
# Reference: not given
# Direction: higher = stronger binding
# Construct (chain): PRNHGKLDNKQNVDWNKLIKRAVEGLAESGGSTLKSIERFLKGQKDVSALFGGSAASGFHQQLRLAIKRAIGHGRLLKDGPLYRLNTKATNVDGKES
Strand,E-score
AGTGGAAT,0.048
CATGGGCG,0.176
GTTGTCAA,-0.119
CAAAAAGC,0.11
AATAAGCA,0.0746
AGAGGAAC,-0.129
CACAACTA,-0.0578
CACTTAGC,0.0124
CTCCCATA,-0.251
CCGAGAAA,0.0363
AATGTCTG,0.0166
GGCCGTCA,0.0501
TGCCAGAA,0.0129
TCGTTACA,-0.109
AACTACCC,-0.0767
GCCTCAGA,0.0982
ATTCCGTC,-0.175
CATGGCCA,-0.092
CCATTATC,0.0866
CCGTATGC,0.118
AGCGCCTA,-0.132
AAGTGTTC,-0.148
ATGGGGTG,-0.0951
AGAAATCA,0.0464
ACAGCACA,0.113

# Study 2
# Target: CCNB2, cyclin fold, Cln2 fusion (human)
# Technique: yeast growth competition, sequencing
# Matrix: yeast
# Notes: weak parent motif
# Reference: not given
# Direction: higher = stronger binding
# Parent: WEE1 docking peptide (human); HKTFRKLRLFDTP
Change,normalised enrichment score
R5T,0.513
K6N,0.582
T3V,0.697
L7A,0.189
K2H,0.455
F10N,0.59
F10W,0.0233
R8N,-0.111
K6W,0.359
D11F,0.0535
L9I,0.296
K6F,-0.811
R5G,0.564
F4I,0.938
L9M,0.561
D11Y,-0.119
R8W,1.08
P13M,1.3
L7M,0.272
T12K,1.28
F4Q,0.336
T3E,0.00365
H1Q,1.04
L7H,0.416
F10K,0.518

# Study 3
# Target: RNA binding protein fox-1 homolog 2, RRM domain, GST-SBP tag (RBFOX2, Homo sapiens, UniProt O43251-10, residues 100-194)
# Technique: RNA Bind-n-Seq
# Molecule type: RNA
# Matrix: in vitro
# Tested at: 365 nM
# Notes: natural RNA segment, single round, ends assumed
# Reference: no-protein control
# Direction: higher = stronger binding
# Shared flanks, not repeated: GGGAGUUCUACAGUCCGACGAUC … UGGAAUUCUCGGGUGCCAA
# Residues (chain): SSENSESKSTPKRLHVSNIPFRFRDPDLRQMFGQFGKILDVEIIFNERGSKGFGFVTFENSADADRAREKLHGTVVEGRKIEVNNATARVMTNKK
Strand,RBNS enrichment (R)
AGCGGGCCAGUCCGUGCUUCUCCAGCUUCCCCAUGAGGCCAGCCGGGCCACGGCCUCCAUCAUGCUGAAUGACGCCUUCCUUCUGCCCCACCCCAGAAAAUCACUGUGAA,0.329
UUAGCACUCUCAAAUUUCAGGUUUGUAAAACACAGUUUUUGUUUUGUGUUCUGGCAAAGUGAUCUCAACAUGUAAGUAGUUGCAGUAAAACACAGGGGCAAAGGAAGACA,0.792
UGGCAACAUGAACUGGGAAACAGAGCUCUCUCUGCCUAGAGAAAGGAGCGGCCCUCAAGAUCUCUUUGCCGAGUUUGGGAGCCAUGAGCAAGUCCUUGGCUCCAUACUUC,0.256
UGUUUAUAGUAAAAAGGAAGAGCGUUUCCUAAUCCCUCCUUUACCAUAUCCUACACAGAAAAAUACUUUUAGACUUAUAUUGCCAAGCCAAAGUUACCAUAUUUUGGUGU,0.694
AAAGCUCACAUUCUAAGUAGAGAAGCAGGAAAAAUUGUUCAAAAGACAAACACCCUGUUGAACUGAGAGAAGUAAACUCCAGAAGGGAACCAAGAUUUCCUCCCUUUCCU,0.19
UGGGCCAACUAUUUAGUAAGCCCGGAUAGACUUAUUGCCAAAAACAAAAAAUAGCUUUCAAAAGAAAUUUAAGUUCUAUGAGAAAUUCCUUAGUCAUGGUGUUGCGUAAA,0.651
GCUUUUUCUGGCAGCCAGAAGCCAAUGCUUAUGCAGGCUCCCGCAUCUCAGCCAGAGGCCAGAUGUUCUUAGAACUGACUUGACCUGAGCAGACCCCCUAACCCUUCAGA,0.282
CUCCCCUGCCCCGCGGGUCUCUGGAUUGGGACGCACAGUGCAGUUGAGGUCUGCGUCGGGCUUGGCUUUUCACAAAGGCUGAUGUCUUAACUGUCACCCAUAUGGUCCCU,0.171
UUUUCAGUUGUUUGUUUUUGCUUGUUAUAUUAAGCAGAAAUCCUGCAAUGAAAGGUACUAUAUUUGCUAGACUCUAGACAAGAUAUUGUACAUAAAAGAAUUUUUUUGUC,0.399
UCUCUGUGGAGACUAAUUUUUUCCCCUUUUGCCAAAAGCAGUCCUUCCCAAAUUAACAAAGCAAACUGAAAUAAUACCUUGAAUAACAGGUUGCCUGUGGUCUCUGUCAU,0.708
CUGGAUCUAAGCUCAGGAGUACACAUAGCAGCUAUGGGUAUGGGUGUCCUCCUCUGGUGUAACUGUGAGACUAAGUGAUAGGAAGAAGUAAAGCCUUCAUAGCGAGUGGA,0.784
GUUCCCCUCUUUACCUUCACCAUUCGCUGCUUCUGCCAAGUCUGUGAAGCCGUCCUUUGUAGGAUGUUUCUUGCCACUUACGCUGUACUGUAGUUGCUUAUUCUUUCUGC,0.467

# Study 4
# Target: Ras GTPase-activating protein-binding protein 1, RRM domain (G3BP1, Homo sapiens, UniProt Q13283)
# UniProt Q13283, sequence (whole entry, looked up): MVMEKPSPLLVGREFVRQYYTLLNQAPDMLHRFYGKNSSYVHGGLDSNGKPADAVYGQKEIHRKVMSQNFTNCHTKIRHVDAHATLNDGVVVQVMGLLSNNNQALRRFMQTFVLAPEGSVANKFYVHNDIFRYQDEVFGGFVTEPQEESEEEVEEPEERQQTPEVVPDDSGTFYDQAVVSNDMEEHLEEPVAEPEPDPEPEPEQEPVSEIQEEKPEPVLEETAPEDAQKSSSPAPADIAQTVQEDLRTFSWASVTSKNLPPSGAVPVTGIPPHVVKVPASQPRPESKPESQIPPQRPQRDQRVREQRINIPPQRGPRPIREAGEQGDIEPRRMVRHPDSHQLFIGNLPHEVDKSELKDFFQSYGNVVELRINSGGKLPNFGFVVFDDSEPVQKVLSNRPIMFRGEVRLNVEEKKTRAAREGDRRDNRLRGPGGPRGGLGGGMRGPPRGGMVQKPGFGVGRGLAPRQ
# Technique: RNA Bind-n-Seq
# Molecule type: RNA
# Matrix: in vitro
# Tested at: 1 µM
# Notes: whole 134-nt RNA, ends assumed
# With: 150 mM KCl
# Reference: input library
# Direction: higher = stronger binding
# Shared flanks, not repeated: GGGAGUUCUACAGUCCGACGAUC … UGGAAUUCUCGGGUGUCAAGG
Strand,log2 enrichment
UGGCCCUGGUGGCAUGCGGGGAGGAAGAGGUGGCCUCAUGGUUCGUGGUGGUCCCGGUGGAAUGUUCAGAGGUGGCCGUGGUGGAGACAG,0.415
GCAGGAAGUAAAAACAAAUGGAAAUUCUUCGGAUAGUGGCAGGGGUGGGGGUUGCUAAGGAAAGGGUGGGAUGGGAGUGGGUAAAGAGUU,1.17
GGAGUGCCGUGAGCAGGCCGCGGGAACGUCGCCGUCACCUUGUCUCGGGGCCUCGGCGCUGCUUCCCGCCAAAACACGUUUACCGCGCGC,-0.918
UGGCCCUGGUGGCAUGCGGGGCGGAAGAGGUGGCCUCAUGGAUCGUGGUGGUCCCGGUGGAAUGUUCAGAGGUGGCCGUGGUGGAGACAG,0.979
GAAAGAAGUAAAAACAAAUGGAAAUGCUUCGGAUAGUGGCAGGGGUGGGGGUUGCUAAGGAAAGGGUGGGAUGGGAGUGGGUAAAGAGUU,1.18
UCAAGUCCUGUGCUACACAUCGUAUGUACCGAAUCGGCCGGGGCCGGGGCCGGGAAAGUAUUAUGUUACGCCGUUCGGAUCUGCACUUCC,-1.66
GAAAUUGAACCAGCAGCGAUGAAAGCAGCAGCUGCUGCCCCUGCCUCAGAGGAUGAGGACGAUGAGGAUGACGAAGAUGAUGAGGAUGAC,-0.236
CAAGCCAAGGAAAUGGUGUUAGAGUUAAUUCGUGAUCAAGGCGGUUUCAGAGAAGUUCGGAAUGAGUAUGGGUCAAGAAUAGGAGGAAAU,-0.175
GCAGGAAGUAAAAACAAAUGGAAAUGCUUCGGAUAGUGGCAAGGGUGGGGGUUGCUAAGGAAAGGGUGGGAUGGGAGUGGGUAAAGAGUU,1.03
UCCUGUGCUACACAUCGUAUGUACCGAAUCGGGAAAAAAAGGGUUUUUGGGAAAAAGGGAAAGUAUUAUGUUACGCCGUUCGGAUCUGCA,0.0584

# Some of these lines once more (study 1):
Strand,E-score
CATGGGCG,0.176
GTTGTCAA,-0.119
CAAAAAGC,0.11
AATAAGCA,0.0746
AGAGGAAC,-0.129
CACAACTA,-0.0578
CACTTAGC,0.0124
